Assay results from different studies.
Numbers after ± are the reported error.
Chain of UniProt Q14654 (whole entry, looked up): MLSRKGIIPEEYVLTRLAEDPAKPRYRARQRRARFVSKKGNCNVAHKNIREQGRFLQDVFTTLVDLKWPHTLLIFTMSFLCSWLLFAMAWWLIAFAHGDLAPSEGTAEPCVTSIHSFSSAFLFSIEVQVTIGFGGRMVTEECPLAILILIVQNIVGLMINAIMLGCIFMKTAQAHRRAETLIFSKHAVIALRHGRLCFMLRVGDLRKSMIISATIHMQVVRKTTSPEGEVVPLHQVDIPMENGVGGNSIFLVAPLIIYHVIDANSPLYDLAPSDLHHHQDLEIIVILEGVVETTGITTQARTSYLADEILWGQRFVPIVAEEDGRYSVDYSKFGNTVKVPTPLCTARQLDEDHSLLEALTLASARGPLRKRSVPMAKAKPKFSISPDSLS
Chain of UniProt P00940 (whole entry, unmodified, looked up): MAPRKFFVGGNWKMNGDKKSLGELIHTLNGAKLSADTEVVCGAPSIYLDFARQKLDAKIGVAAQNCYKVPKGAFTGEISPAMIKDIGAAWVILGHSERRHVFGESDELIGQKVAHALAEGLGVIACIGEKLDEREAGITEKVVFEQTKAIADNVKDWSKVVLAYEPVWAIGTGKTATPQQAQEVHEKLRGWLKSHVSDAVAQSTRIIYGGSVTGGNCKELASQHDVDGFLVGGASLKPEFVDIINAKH
Chain of UniProt P23458 (whole entry, looked up): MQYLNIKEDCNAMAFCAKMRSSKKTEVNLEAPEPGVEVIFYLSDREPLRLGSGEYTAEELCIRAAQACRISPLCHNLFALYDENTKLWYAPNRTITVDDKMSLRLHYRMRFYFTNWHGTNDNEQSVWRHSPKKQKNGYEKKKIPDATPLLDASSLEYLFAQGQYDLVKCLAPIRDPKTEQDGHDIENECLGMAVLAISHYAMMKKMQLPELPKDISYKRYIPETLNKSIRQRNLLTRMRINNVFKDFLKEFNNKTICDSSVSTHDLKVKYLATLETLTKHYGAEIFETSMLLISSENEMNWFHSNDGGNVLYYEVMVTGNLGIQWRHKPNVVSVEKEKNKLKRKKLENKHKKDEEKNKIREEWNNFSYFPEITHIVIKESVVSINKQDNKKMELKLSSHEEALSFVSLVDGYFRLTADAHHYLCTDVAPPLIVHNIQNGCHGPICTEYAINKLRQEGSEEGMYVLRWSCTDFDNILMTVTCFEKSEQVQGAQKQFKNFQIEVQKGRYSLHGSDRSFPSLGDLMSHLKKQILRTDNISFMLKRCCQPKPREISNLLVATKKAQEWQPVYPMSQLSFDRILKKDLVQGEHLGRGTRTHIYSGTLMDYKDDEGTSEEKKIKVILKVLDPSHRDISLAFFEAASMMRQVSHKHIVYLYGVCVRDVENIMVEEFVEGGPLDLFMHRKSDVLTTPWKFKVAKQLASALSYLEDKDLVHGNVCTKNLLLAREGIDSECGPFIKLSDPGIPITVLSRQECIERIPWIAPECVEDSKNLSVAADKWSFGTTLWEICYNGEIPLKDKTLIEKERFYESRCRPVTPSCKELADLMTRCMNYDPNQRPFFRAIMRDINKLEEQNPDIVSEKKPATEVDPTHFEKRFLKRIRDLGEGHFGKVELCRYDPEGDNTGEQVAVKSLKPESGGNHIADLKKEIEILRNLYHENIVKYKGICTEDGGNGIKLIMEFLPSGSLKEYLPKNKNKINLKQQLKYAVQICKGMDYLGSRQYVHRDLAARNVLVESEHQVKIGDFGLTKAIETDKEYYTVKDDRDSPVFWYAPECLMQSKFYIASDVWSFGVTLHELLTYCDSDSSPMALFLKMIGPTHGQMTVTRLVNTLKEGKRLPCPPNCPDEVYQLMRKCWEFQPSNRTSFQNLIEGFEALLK
Chain of UniProt O60674 (whole entry, looked up): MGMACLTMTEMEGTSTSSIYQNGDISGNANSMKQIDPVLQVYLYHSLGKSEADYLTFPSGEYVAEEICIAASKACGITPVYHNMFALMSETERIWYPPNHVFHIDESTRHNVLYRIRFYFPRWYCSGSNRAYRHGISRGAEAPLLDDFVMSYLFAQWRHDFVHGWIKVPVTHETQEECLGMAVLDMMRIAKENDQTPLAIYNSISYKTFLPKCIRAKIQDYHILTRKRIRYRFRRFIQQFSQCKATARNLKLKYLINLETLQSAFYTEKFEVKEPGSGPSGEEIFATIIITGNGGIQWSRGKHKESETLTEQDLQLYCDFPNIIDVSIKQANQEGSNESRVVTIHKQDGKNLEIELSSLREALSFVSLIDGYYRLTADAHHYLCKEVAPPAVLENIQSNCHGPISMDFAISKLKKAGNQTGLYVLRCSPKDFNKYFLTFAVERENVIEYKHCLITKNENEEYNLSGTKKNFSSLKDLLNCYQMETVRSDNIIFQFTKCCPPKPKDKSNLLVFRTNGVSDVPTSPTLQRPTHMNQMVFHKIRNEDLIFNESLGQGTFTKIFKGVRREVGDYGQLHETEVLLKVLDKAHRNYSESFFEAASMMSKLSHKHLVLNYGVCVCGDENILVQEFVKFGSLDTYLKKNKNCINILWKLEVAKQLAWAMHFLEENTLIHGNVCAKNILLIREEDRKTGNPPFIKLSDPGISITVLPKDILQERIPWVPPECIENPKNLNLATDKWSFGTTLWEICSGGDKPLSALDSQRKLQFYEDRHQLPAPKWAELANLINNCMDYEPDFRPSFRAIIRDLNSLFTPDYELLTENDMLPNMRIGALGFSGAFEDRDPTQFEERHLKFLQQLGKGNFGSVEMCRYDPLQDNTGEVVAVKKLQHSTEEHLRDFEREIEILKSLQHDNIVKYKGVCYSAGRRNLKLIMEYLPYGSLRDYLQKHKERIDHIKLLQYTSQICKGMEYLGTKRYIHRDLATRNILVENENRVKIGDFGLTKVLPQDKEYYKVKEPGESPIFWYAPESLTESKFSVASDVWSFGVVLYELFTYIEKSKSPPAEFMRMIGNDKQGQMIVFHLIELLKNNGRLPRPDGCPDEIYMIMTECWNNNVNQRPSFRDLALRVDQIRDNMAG
Chain of UniProt Q86UE8 (whole entry, looked up): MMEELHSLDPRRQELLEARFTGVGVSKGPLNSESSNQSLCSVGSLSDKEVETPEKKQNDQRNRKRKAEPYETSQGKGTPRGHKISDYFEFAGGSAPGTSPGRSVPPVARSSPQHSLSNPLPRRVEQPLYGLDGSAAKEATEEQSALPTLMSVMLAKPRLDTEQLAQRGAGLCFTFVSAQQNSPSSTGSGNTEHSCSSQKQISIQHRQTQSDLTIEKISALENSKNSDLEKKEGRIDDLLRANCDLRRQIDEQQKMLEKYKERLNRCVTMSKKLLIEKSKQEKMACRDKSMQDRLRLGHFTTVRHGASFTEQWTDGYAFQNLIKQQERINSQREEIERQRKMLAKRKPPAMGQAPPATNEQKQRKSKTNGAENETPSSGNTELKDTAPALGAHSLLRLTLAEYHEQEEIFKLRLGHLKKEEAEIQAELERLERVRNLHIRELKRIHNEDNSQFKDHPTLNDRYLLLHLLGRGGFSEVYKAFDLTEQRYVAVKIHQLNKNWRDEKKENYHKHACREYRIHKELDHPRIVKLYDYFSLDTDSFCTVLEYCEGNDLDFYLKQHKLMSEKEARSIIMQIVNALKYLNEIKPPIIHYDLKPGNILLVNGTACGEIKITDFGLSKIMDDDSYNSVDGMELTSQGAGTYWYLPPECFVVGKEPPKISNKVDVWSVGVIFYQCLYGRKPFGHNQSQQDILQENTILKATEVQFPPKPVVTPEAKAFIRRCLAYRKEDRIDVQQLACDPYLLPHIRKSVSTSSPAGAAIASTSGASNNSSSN
Chain of UniProt P00330 (whole entry, unmodified, looked up): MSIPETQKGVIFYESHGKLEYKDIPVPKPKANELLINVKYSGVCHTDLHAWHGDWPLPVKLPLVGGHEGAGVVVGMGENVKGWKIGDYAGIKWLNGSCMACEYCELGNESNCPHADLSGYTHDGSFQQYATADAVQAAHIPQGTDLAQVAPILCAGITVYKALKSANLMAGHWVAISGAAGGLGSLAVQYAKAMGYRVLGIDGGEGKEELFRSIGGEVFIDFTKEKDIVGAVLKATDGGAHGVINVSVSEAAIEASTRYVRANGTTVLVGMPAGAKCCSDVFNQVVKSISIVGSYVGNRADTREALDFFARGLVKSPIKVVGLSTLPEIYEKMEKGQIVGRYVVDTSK

O=C(c1ccc(Cl)cc1)N1CCN2C(=O)N(OC(=O)N3CCOc4ccccc43)C(=O)C2C1 (stereo not drawn) — median ratio (Fatty acid synthase (FASN, Homo sapiens, UniProt P49327); enzyme activity, inhibitor, MS-based ABPP; SW-620 in situ; 10 µM, 2 h, 37 °C; reference: compound over DMSO, lower = stronger inhibition): 1.13
Nc1ncnc2c1ncn2[C@@H]1O[C@H](COP(=O)(O)OP(=O)(O)OP(=O)(O)O)[C@@H](O)[C@H]1O — long open time constant (ATP-sensitive inward rectifier potassium channel 11 (Homo sapiens, UniProt Q14654); single-channel patch clamp; concentration not given, reactivation after rundown): 3 ± 0.3 ms
C[C@H]1CN(c2n[nH]c3nc(N[C@H]4CC[C@H](NS(=O)(=O)CCC(F)(F)F)CC4)ncc23)CCO1 — relative abundance (Serine/threonine-protein kinase tousled-like 2 (TLK2, Homo sapiens, UniProt Q86UE8); inhibitor, Kinobeads competition profiling; 20 µM; reference: vehicle): 1.15
[2H]c1c([2H])c([C@]2([2H])CCCN2C(=O)C(C)(C)Oc2ccc3cn[nH]c3c2)c([2H])c([2H])c1C([2H])([2H])[2H] — remaining binding (Tyrosine-protein kinase JAK2 (JAK2, Homo sapiens, UniProt O60674); KINOMEscan; 1 µM; reference: DMSO control): 86%
CC[C@H](C)[C@H](NC(=O)[C@H](Cc1ccccc1)NC(=O)[C@H](CCC(=O)O)NC(=O)[C@H](CCCNC(=N)N)NC(=O)[C@H](C)NC(=O)[C@H](C)NC(=O)[C@H](CCC(N)=O)NC(=O)[C@H](CCC(=O)O)NC(=O)[C@H](CCC(=O)O)NC(=O)[C@H](CC(C)C)NC(=O)[C@H](Cc1ccc(O)cc1)NC(=O)[C@H](CO)NC(=O)[C@H](CO)NC(=O)[C@@H](NC(=O)[C@H](CC(=O)O)NC(=O)[C@H](CO)NC(=O)[C@@H](NC(=O)[C@H](Cc1ccccc1)NC(=O)[C@@H](NC(=O)CNC(=O)[C@H](CCC(=O)O)NC(=O)[C@H](C)NC(=O)CCc1c[nH]cn1)[C@@H](C)O)[C@@H](C)O)C(C)C)C(=O)N[C@@H](C)C(=O)N[C@@H](Cc1c[nH]c2ccccc12)C(=O)N[C@@H](CC(C)C)C(=O)N[C@H](C(=O)N[C@@H](CCCNC(=N)N)C(=O)NCC(=O)N[C@@H](CCCNC(=N)N)C(=O)N[C@@H](CCCCNC(=O)COCCOCCNC(=O)COCCOCCNC(=O)CC[C@H](NC(=O)CCCCCCCCCCCCCCCCC(=O)O)C(=O)O)C(=O)NCC(=O)NCC(=O)N[C@@H](CO)C(=O)N[C@@H](CCCCNc1c(NCCCCCN(O)C(=O)CCC(=O)NCCCCCN(O)C(=O)CCC(=O)NCCCCCN(O)C(C)=O)c(=O)c1=O)C(=O)O)C(C)C [zirconium-89 labelled] — tissue uptake (rat, colon; sc, 3 nmol/kg, 72 h, ex vivo): 0.14 %ID/g
CC[C@H](C)[C@@H]1NC(=O)[C@@H]2CCCN2C(=O)[C@H](CC(C)C)NC(=O)[C@H](CC(C)C)NC(=O)CNC(=O)[C@@H](NC(=O)[C@@H](NC(=O)[C@H](CC(=O)O)NC(=O)CNC(=O)[C@@H](NC(=O)[C@H](C)NC(=O)CNC(=O)[C@H](CCCCN)NC(=O)[C@H](CC(C)C)NC(=O)[C@H](CC(C)C)NC(=O)[C@H](CCCCN)NC(=O)CNC(=O)[C@@H](NC(=O)[C@@H](N)CC(C)C)C(C)C)C(C)C)C(C)C)CSSC[C@@H](C(=O)O)NC1=O — log2 fold change (RNA-seq, item: Nipal1; mouse, traumatic brain injury model, frontal cortex and hippocampus; dose not given; reference: TBI alone): -3.98
NC(=O)c1ccc[n+]([C@@H]2O[C@H](COP(=O)([O-])OP(=O)(O)OC[C@H]3O[C@@H](n4cnc5c(N)ncnc54)[C@H](O)[C@@H]3O)[C@@H](O)[C@H]2O)c1 — Km (ADH1 (Saccharomyces cerevisiae, UniProt P00330, H49Q); enzyme activity, substrate; pH 7.3, 30 °C): 100 µM
Nc1ncc(-c2nc(N3CCOCC3)nc(N3CCOCC3)n2)c(C(F)F)n1 — remaining binding (Kv potassium channel; radioligand binding, antagonist ligand; 10 µM; reference: control): 109%
COc1ccc(N2C(=O)N(c3c(C)cccc3Cl)Cc3cnc(Nc4ccc(C5CCN(C)CC5)cc4OC)nc32)nc1 — inhibition (Tyrosine-protein kinase JAK1 (JAK1, Homo sapiens, UniProt P23458); kinase activity; 0.5 µM): -9%
O=C(O)COP(=O)(O)O — Ki ratio (Triosephosphate isomerase (TPI1, Gallus gallus, UniProt P00940, G210A/S211G/Y208T); enzyme activity, competitive inhibitor, GPDH/NADH-coupled; pH 8.3, 25 °C, ionic strength 0.1 NaCl, with: glyceraldehyde 3-phosphate substrate; reference: mutant over wild type): 24
COc1cc2c(Oc3ccc4[nH]c(C)cc4c3F)ccnc2cc1OCC1(N)CC1 — grade 3 Rash (paediatric recurrent refractory sarcoma; 12 mg): 0%
COc1cc(Nc2ncc(F)c(Nc3ccc4c(n3)NC(=O)C(C)(C)O4)n2)cc(OC)c1OC — IC50 (Caspase-7 (CASP7, Homo sapiens, UniProt P55210)): > 10 µM

A few entries again:
O=C(O)COP(=O)(O)O — Ki ratio (Triosephosphate isomerase (TPI1, Gallus gallus, UniProt P00940, G210A/S211G/Y208T); enzyme activity, competitive inhibitor, GPDH/NADH-coupled; pH 8.3, 25 °C, ionic strength 0.1 NaCl, with: glyceraldehyde 3-phosphate substrate; reference: mutant over wild type): 24
COc1cc2c(Oc3ccc4[nH]c(C)cc4c3F)ccnc2cc1OCC1(N)CC1 — grade 3 Rash (paediatric recurrent refractory sarcoma; 12 mg): 0%
